# Assay results pooled from the literature.
# Every numbered part comes from another study and shows a few of its results, in no order.
# Chain of UniProt Q16539 (whole entry, looked up): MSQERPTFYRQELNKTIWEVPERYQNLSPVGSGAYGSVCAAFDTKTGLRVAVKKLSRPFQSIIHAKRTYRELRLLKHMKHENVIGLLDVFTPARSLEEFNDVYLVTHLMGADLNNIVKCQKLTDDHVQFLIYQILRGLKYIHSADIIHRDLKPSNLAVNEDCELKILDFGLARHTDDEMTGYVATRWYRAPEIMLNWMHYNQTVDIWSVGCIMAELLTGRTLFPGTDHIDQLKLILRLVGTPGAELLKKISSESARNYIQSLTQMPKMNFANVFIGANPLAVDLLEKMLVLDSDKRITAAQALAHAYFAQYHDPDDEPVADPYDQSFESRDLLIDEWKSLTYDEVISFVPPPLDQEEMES
# Chain of UniProt P49761 (whole entry, looked up): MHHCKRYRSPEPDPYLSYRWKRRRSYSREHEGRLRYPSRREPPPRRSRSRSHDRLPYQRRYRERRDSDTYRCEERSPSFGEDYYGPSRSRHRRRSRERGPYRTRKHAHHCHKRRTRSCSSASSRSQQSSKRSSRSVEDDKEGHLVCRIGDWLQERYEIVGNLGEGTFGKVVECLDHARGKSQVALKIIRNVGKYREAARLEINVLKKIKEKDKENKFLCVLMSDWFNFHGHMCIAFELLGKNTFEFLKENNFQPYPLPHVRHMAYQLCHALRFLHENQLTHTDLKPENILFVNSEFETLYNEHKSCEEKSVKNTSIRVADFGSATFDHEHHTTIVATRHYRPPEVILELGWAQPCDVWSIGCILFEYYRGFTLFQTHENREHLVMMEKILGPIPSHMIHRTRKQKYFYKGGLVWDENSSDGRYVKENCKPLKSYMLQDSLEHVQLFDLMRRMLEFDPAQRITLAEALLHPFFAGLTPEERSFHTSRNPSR
# Chain of UniProt P49840 (whole entry, looked up): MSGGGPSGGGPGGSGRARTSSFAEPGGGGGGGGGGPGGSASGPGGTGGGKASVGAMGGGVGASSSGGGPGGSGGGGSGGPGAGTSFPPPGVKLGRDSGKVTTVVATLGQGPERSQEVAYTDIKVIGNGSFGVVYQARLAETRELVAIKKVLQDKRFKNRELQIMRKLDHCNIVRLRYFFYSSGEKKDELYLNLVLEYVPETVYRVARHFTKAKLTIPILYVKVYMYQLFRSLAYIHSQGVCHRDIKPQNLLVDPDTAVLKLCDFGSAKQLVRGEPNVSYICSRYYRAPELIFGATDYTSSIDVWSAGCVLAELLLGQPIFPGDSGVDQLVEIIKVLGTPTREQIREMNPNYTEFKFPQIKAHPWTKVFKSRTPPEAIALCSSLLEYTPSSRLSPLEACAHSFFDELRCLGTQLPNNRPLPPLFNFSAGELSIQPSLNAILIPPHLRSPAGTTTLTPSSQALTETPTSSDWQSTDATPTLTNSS
# Chain of UniProt P28482 (whole entry, looked up): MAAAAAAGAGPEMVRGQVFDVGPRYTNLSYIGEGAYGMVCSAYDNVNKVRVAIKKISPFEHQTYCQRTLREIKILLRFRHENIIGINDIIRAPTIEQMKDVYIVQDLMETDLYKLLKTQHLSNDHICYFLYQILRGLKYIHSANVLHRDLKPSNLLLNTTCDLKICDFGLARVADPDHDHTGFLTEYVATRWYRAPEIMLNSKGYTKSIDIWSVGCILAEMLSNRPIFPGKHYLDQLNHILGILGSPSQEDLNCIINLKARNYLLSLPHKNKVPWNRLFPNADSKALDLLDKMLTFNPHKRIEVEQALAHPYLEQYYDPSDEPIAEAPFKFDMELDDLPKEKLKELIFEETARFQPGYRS
# Chain of UniProt Q9H0K1 (whole entry, looked up): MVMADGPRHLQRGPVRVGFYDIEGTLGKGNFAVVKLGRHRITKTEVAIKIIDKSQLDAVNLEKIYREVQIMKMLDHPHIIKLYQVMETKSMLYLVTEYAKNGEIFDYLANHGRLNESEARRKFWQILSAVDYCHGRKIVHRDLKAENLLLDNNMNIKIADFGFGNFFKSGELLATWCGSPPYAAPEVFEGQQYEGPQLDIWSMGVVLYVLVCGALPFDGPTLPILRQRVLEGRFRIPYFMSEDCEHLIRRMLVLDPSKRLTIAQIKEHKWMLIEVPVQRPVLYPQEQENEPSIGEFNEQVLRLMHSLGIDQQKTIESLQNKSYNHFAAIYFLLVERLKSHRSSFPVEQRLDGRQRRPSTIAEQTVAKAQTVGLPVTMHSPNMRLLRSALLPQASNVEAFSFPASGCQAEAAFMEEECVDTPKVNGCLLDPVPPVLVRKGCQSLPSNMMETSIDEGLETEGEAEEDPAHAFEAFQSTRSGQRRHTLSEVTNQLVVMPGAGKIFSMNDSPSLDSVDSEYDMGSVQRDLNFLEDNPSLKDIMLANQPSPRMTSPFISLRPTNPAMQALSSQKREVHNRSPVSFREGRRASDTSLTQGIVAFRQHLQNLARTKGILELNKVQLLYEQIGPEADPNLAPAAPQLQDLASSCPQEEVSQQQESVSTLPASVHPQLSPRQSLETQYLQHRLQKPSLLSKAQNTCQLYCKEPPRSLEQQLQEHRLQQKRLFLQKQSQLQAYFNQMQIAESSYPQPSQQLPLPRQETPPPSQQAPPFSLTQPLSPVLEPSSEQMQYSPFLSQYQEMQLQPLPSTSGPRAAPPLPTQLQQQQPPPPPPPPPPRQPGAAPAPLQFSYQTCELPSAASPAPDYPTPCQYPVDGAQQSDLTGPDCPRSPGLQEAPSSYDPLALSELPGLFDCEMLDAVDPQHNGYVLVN
# Chain of UniProt P42681 (whole entry, looked up): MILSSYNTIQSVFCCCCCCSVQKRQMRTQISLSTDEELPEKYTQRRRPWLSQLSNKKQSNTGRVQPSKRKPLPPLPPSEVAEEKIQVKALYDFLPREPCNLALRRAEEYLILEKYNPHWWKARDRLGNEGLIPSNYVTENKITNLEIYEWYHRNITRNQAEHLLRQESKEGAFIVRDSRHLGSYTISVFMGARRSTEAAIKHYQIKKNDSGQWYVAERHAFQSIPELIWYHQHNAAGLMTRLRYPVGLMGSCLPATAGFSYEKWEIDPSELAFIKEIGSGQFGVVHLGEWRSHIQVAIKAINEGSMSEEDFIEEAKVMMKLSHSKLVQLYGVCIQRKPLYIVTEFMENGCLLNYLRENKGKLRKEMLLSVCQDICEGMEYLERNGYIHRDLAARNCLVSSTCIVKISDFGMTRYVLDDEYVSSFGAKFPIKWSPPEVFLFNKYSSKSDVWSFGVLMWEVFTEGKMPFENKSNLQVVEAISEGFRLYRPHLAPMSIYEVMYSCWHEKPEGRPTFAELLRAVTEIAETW
# Chain of UniProt O75914 (whole entry, looked up): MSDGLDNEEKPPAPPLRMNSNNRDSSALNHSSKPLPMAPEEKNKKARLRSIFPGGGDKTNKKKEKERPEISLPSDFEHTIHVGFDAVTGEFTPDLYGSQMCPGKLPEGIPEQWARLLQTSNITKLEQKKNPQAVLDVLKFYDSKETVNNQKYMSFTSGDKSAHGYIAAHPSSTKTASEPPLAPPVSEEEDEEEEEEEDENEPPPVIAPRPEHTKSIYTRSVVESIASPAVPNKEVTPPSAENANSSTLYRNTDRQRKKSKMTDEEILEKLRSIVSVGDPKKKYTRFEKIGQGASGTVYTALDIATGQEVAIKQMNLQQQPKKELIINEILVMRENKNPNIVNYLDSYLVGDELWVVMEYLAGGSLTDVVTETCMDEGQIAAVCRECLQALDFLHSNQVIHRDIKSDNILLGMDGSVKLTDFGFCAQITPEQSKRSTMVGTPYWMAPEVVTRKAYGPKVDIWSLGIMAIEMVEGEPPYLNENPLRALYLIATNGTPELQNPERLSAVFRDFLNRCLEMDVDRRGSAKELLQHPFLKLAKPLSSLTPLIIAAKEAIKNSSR
# Chain of UniProt P31751 (whole entry, looked up): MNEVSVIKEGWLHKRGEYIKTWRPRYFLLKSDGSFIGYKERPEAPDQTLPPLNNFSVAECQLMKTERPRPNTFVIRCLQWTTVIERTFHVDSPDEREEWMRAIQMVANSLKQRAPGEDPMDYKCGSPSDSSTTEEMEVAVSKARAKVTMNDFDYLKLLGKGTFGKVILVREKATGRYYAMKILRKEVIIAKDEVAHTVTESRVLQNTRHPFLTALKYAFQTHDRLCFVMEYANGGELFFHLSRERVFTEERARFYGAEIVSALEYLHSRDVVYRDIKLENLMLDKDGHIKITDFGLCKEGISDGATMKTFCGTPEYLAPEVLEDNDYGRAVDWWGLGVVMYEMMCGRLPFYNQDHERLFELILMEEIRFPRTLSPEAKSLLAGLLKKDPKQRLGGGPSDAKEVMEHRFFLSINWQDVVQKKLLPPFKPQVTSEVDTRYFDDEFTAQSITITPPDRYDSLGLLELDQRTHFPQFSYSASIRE
# Chain of UniProt Q9HAZ1 (whole entry, looked up): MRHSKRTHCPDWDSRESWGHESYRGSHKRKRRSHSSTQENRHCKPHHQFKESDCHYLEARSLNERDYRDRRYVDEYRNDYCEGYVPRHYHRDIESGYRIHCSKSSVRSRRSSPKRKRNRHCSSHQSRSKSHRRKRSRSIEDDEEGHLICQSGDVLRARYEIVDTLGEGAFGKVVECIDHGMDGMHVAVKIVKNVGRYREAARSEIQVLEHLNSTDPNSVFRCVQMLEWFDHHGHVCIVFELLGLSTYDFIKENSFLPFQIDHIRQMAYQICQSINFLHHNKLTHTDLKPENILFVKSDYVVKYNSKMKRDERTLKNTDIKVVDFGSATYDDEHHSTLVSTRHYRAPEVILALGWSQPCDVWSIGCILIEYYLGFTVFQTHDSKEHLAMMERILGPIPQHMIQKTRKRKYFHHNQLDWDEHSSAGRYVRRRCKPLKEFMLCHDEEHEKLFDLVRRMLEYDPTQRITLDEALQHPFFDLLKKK
# Chain of UniProt P06493 (whole entry, looked up): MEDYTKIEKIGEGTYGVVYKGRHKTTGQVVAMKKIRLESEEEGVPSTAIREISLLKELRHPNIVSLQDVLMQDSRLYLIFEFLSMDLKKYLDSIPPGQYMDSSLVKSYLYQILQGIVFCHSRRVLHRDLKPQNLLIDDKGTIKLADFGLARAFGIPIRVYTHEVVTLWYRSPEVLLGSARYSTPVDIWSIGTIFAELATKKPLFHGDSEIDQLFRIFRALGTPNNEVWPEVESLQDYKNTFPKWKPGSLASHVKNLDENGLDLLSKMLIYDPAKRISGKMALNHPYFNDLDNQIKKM

# Block 1 — host: mouse; medium: microsomes or S9; concentration: 2 µM; time: 0.5 h
Compound,remaining compound [%]
C=CCc1cc(CNc2ncnc3nn(C)cc23)cc(OC)c1OC,16.3
Cc1c(NC(=O)CCC(=O)N(c2ccccc2)c2ccccc2)c(=O)n(-c2ccccc2)n1C,3.17
O=C(CCCc1ccc2c(c1)-c1ccccc1C2)NC1CCCNC1=O (stereo not drawn),7.26
Cc1cc(-c2[nH]c3[nH]c(=O)[nH]c(=O)c3c2-c2cc(C)sc2C)c(C)s1,22.6

# Block 2 — observed: cell-free assay; method: competition with immobilised ligand; concentration: 1 µM
# SMILES: CCS(=O)(=O)c1cc2cc(C[C@](O)(CC(C)(C)c3ccc(F)cc3C(N)=O)C(F)(F)F)[nH]c2cn1
target,remaining binding [%]
"TEC (Homo sapiens, UniProt P42680)",90
"GSK3A (Homo sapiens, UniProt P49840)",100
"SIK2 (Homo sapiens, UniProt Q9H0K1)",100
"RIOK1 (Homo sapiens, UniProt Q9BRS2)",80
"WNK1 (Homo sapiens, UniProt Q9H4A3)",97
"MAPK14 (Homo sapiens, UniProt Q16539)",100

# Block 3 — cell line: mouse MPNST tumor cells; method: high-content nuclear imaging; item: cell number; concentration: 10 µM; time: 12 h; notes: mean of 2 replicates; reference: plate mean; reading: higher = more cells
SMILES,nuclei count
Cc1c(-c2ccc(-c3ccccc3F)cc2)nc2ccc(F)cc2c1C(=O)O,-1.26 z-score
CN1c2cc3c(cc2N=C(c2ccc(C(=O)O)cc2)c2ccccc21)C(C)(C)CCC3(C)C,-0.929 z-score
Oc1ccc(OCc2ccccc2)cc1,-2.98 z-score
Cc1ccsc1/C=C/C1=NCCCN1C,0.552 z-score
Fc1ccc(Cl)cc1-c1nc(Nc2ccncc2)c2nccnc2n1,-0.465 z-score
O=C(O)C1(C(=O)O)CCC1.[NH2-].[NH2-].[Pt+2],1.08 z-score

# Block 4 — cell line: HaCaT; concentration: 100 µM; time: 18 h
Compound,viability
Cc1ccc(Nc2nccc(N(C)c3ccc4c(C)n(C)nc4c3)n2)cc1S(N)(=O)=O,22.3%
C[C@]12CC[C@@H]3c4ccc(O)cc4CC[C@H]3[C@@H]1CC[C@@H]2O,77.6%
CCN1CCN(Cc2ccc(Nc3ncc(F)c(-c4cc(F)c5nc(C)n(C(C)C)c5c4)n3)nc2)CC1,108%
CC1(C)NC(=O)N(c2ccc([N+](=O)[O-])c(C(F)(F)F)c2)C1=O,93.9%
CN[C@@H]1[C@@H](O[C@H]2O[C@H](CO)[C@@H](N)[C@H](O)[C@H]2O)O[C@H]2C[C@@H](N)[C@@H](O[C@H]3[C@H](O)[C@@H](O)[C@H](N)C[C@@H]3N)O[C@@H]2[C@@H]1O,110%
CC[C@H]1OC(=O)[C@@](C)(F)C(=O)[C@H](C)[C@@H](O[C@@H]2O[C@H](C)C[C@H](N(C)C)[C@H]2O)[C@](C)(OC)C[C@@H](C)C(=O)[C@H](C)[C@H]2N(CCCCn3cc(-c4cccc(N)c4)nn3)C(=O)O[C@]12C,26.4%
O=C1[C@@H]2[C@H]3CC[C@H](C3)[C@@H]2C(=O)N1C[C@@H]1CCCC[C@H]1CN1CCN(c2nsc3ccccc23)CC1,90.2%

# Block 5 — SMILES: CCOc1nc(NC(=O)Cc2cc(OC)ccc2OC)cc(N)c1C#N; observed: enzyme activity; mode: inhibitor; concentration: 0.5 µM; reference: control
target,remaining activity [%]
"MAPK14 (Homo sapiens, UniProt Q16539)",93.9
"MARK4 (Homo sapiens, UniProt Q96L34)",96.9
"CAMK4 (Homo sapiens, UniProt Q16566)",99.1
"TLK2 (Homo sapiens, UniProt Q86UE8)",100
"ROCK1 (Homo sapiens, UniProt Q13464)",96.4
"TXK (Homo sapiens, UniProt P42681)",93
"Cyclin-dependent kinase 1, with cyclin A (CDK1, Homo sapiens, UniProt P06493)",92.2
"AKT2 (Homo sapiens, UniProt P31751)",103
"MARK2 (Homo sapiens, UniProt Q7KZI7)",99.8
"PRKG2 (Homo sapiens, UniProt Q13237)",114
"MAPK1 (Homo sapiens, UniProt P28482)",92.6
"KDR (Homo sapiens, UniProt P35968)",102
"MAP2K1 (Homo sapiens, UniProt Q02750)",87
"Cyclin-dependent kinase 9, with cyclin K (CDK9, Homo sapiens, UniProt P50750)",89.2
"MINK1 (Homo sapiens, UniProt Q8N4C8)",97.4
"CLK3 (Homo sapiens, UniProt P49761)",101
"CDC42BPB (Homo sapiens, UniProt Q9Y5S2)",103
"CLK4 (Homo sapiens, UniProt Q9HAZ1)",96.1
"GRK4 (Homo sapiens, UniProt P32298)",99.8
"DDR2 (Homo sapiens, UniProt Q16832)",95.4
"PNCK (Homo sapiens, UniProt Q6P2M8)",96.5
"Myosin-IIIb (MYO3B, Homo sapiens, UniProt Q8WXR4)",102
"NEK3 (Homo sapiens, UniProt P51956)",90
"PAK3 (Homo sapiens, UniProt O75914)",104

# Block 6 — host: female C57BL/6 mouse; medium: plasma; route: oral; dose: 10 mg/kg; time: 7 h
SMILES,concentration
CCOC(=O)CN(C(=O)c1ccn2ncc(-c3ccc(C(=O)NC)cc3)c2c1)c1ccc(Cl)cc1,98.5 nM
COC(=O)c1cc(Cl)ccc1N(C)C(=O)c1ccn2ncc(-c3ccc(C(N)=O)cc3)c2c1,10.1 nM
CNC(=O)c1ccc(-c2cnn3ccc(C(=O)N(C[C@H]4CCC(=O)O4)c4ccc(OC(F)(F)F)cc4)cc23)cc1,2.8 nM
CN(C(=O)c1ccn2ncc(-c3ccc(C(N)=O)cc3)c2c1)c1ccc(C#N)cn1,350 nM

# A few entries again (block 5):
target,remaining activity [%]
"NEK3 (Homo sapiens, UniProt P51956)",90
"MAPK1 (Homo sapiens, UniProt P28482)",92.6
"Cyclin-dependent kinase 9, with cyclin K (CDK9, Homo sapiens, UniProt P50750)",89.2
"ROCK1 (Homo sapiens, UniProt Q13464)",96.4
"PAK3 (Homo sapiens, UniProt O75914)",104
"CDC42BPB (Homo sapiens, UniProt Q9Y5S2)",103
"PRKG2 (Homo sapiens, UniProt Q13237)",114
"AKT2 (Homo sapiens, UniProt P31751)",103
